Published values collected from several papers.
Every numbered part comes from another study and shows a few of its results, in no order.

Set 1
Target: Histone acetyltransferase KAT6A, winged helix 2, GST fusion (KAT6A, Homo sapiens, UniProt Q92794, residues 85-181)
Method: protein binding microarray
Form: double-stranded DNA, one strand shown
Sample: in vitro
Tested at: not given
Notes: 8-mer, flanks averaged, mean of 2 arrays, mostly near background
Baseline: not given
Direction: higher = stronger binding
Target sequence (chain): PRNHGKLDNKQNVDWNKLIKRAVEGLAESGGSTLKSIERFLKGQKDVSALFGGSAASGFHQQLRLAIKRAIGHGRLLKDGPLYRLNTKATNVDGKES
For `GAGACGAC`, the E-score was -0.0257.
With `GACGCTCC` the E-score was 0.0882.
`ATTCCTGG` gave an E-score of -0.0959.
For `CTCCTCTA`, the E-score was -0.159.
The E-score of `GCAGTGCA` is reported as 0.108.
For `AAATCAAC`, the E-score was -0.149.
The E-score of `ATTTTTCA` is reported as 0.0117.
`GACGATGA` has an E-score of -0.0684.
For `AAGATCTC`, the E-score was 0.0468.
`ACAGCTTG` gave an E-score of 0.044.
`ACGAGGAC` gave an E-score of 0.0175.
With `ACCTTAGA` the E-score was -0.0617.
`ACCCAAAC` gave an E-score of 0.0968.
`AGGAAGTG` gave an E-score of -0.0522.
For `ACTAATTC`, the E-score was 0.0559.
For `TAACCCGA`, the E-score was -0.051.
For `GCGAGCAA`, the E-score was -0.0831.
`AGGTCCGG` gave an E-score of 0.188.
With `GTTTTTGA` the E-score was 0.0329.
With `GATCACAC` the E-score was -0.146.
The E-score of `AATTCATG` is reported as 0.17.
The E-score of `CCTGCAAG` is reported as -0.0415.
For `CTGTGTCA`, the E-score was 0.0561.
The E-score of `AAATTAAA` is reported as 0.185.
`CCAACCGA` gave an E-score of 0.167.

Set 2
Target: Interferon regulatory factor 7, full length, phosphomimetic (IRF7, Homo sapiens, UniProt Q92985, residues 1-503, S471D/S472D/S475D/S476D/S477D/S483D/S484D/S487D)
Method: protein-binding microarray
Form: double-stranded DNA, one strand shown
Sample: in vitro
Tested at: 2200 nM top
Notes: 60-bp whole probe
With: salmon DNA 0.4 mg/ml
Baseline: random background probes
Direction: higher = stronger binding
All sequences stand within: GCCTAGCAC … GTCTTGATTCGCTTGACGCTGCTG
Residues (chain): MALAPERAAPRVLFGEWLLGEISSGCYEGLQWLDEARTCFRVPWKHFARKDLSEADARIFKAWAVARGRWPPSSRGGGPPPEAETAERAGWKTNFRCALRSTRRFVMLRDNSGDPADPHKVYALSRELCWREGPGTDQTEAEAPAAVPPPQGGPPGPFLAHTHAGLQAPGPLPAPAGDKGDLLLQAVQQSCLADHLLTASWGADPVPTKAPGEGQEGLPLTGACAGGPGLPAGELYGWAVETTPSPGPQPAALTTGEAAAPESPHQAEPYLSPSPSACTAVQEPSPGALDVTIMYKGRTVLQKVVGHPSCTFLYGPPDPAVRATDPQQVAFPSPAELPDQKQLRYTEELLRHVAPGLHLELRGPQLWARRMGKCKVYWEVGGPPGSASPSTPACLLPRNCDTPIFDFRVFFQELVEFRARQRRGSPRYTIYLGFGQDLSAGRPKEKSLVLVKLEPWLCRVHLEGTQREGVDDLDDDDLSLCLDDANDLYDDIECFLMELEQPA
`TTCTGAATGCCCTCTAACTTCGTGCTA`: “fitted relative affinity” 0.547 z-score.
Under “fitted relative affinity”, `TATAATATATATATTGTTAGGTGCTAG` is recorded as 0.0702 z-score.
`GACTGTCTCCTTCTCCTGACGTGCTAG` — result for “fitted relative affinity”: 1.53 z-score.
For `TTATTTATAAATTATCTTTAAGTGCTA`, “fitted relative affinity” read -0.551 z-score.
`GGATGAGTCACTTCTGGTGCTGTGCTA`: “fitted relative affinity” -0.423 z-score.
`TCATTTTTTCTTTTATTACTGTGCTAG`: “fitted relative affinity” 3.39 z-score.
For `TCAGCTTTTTAGATCGTACTGTGCTAG`, “fitted relative affinity” read 0.556 z-score.
`GACGGACTGAGGTTTCGGGACGTGCTA` — result for “fitted relative affinity”: 1.17 z-score.
`TCAGCTTTCCTTCTTGAACTGTGCTAG` — result for “fitted relative affinity”: 2.05 z-score.
`TTAGATCTCATACTGGATTAGTGCTAG` — result for “fitted relative affinity”: 0.145 z-score.
`TTATGTTTCGACTATCGGTTAGTGCTA` — result for “fitted relative affinity”: 3.68 z-score.
Under “fitted relative affinity”, `GACTATCTCAGTATCGAGACGTGCTAG` is recorded as 0.496 z-score.
`GACGGACTGAACTATCGGGACGTGCTA` — result for “fitted relative affinity”: -0.367 z-score.
`GACGATTTCAGTTTAGAGACGTGCTAG`: “fitted relative affinity” 2.19 z-score.

Set 3
Target: Centromere-binding protein 1, full length, N-terminal tag (CBF1, Saccharomyces cerevisiae, UniProt P17106, residues 1-351)
Chain of UniProt P17106 (whole entry, looked up): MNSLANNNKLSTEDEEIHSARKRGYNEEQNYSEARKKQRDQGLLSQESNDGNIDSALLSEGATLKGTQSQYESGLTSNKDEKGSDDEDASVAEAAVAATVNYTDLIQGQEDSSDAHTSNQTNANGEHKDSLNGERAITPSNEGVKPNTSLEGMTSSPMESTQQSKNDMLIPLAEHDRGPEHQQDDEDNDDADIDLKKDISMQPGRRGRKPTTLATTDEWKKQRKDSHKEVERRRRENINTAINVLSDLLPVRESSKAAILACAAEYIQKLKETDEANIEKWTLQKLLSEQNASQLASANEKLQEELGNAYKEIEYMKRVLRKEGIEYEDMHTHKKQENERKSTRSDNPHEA
Method: protein-binding microarray
Form: double-stranded DNA, one strand shown
Sample: in vitro
Tested at: 0.8 µM
Notes: whole 60-bp probe, no competitor
Direction: higher = stronger binding
All sequences stand within: … GTCTTGATTCGCTTGACGCTGCTG
`GAACTGTTGGTAGCGATGGTGGTGGTAGTGGTGTAG` gave a fluorescence intensity of 548 a.u.
`TGTACGAAGCTATTAGATGTCACTATAGTAGTTAGG` gave a fluorescence intensity of 543 a.u.
With `CTATTGAATAGTAGTCACATGATCGTTGATTATTTC` the fluorescence intensity was 9140 a.u.
For `CTATTTTATGGACCTGATGCAATCTAGTAGTCCTTC`, the fluorescence intensity was 488 a.u.
For `CTAATGTTCTGCAACAGCGTGCCTGTCACTTGGTTC`, the fluorescence intensity was 546 a.u.
`CTAAAGGACTTGTCACATGAAATTTAGGTCGAGTTC` has a fluorescence intensity of 897 a.u.
With `CTACTTTTTCAACGTCAGGCTGAAATTGACAACTTC` the fluorescence intensity was 572 a.u.
For `CTATTCTTTACTGAGACCGTGATCAGGAGAACGTTC`, the fluorescence intensity was 1210 a.u.
With `GAAAAGAATCTTAATCACGAATTAGGCGTATTGTAG` the fluorescence intensity was 604 a.u.
`CTAAACAGGACACTACATCAGAGATAATCTTGATTC` gave a fluorescence intensity of 518 a.u.
`GAATTTTTAATCCTTTGCGTGGTTGTAATTGAATAG` gave a fluorescence intensity of 558 a.u.
With `GAAGATTTTCGCGTTCACGCCATTATCCAATGTTAG` the fluorescence intensity was 548 a.u.
The fluorescence intensity of `CCTAACTACTATATTATCATGACATAGCTTCGTACA` is reported as 578 a.u.
For `CTATACAAGAAATATCACGTTGGCGCGCGCTAATTC`, the fluorescence intensity was 795 a.u.
For `GAAGATAACTAAAGGTGACTTACCGCCAGATTATAG`, the fluorescence intensity was 537 a.u.
The fluorescence intensity of `CTAAGCTTTCTATTACATGTGGGAAGACTAATATTC` is reported as 593 a.u.
With `CTAGTGATACTCAGTCACCAGACACTTACAGTGTTC` the fluorescence intensity was 628 a.u.
`GAATTTACCAAAGATAAAATCACGTATAACATTTAG` gave a fluorescence intensity of 1520 a.u.

Set 4
Target: PABPC1L2, full length, GST fusion (mouse, UniProt A0ABA7IW68)
Method: RNAcompete
Form: RNA
Sample: in vitro
Tested at: 20 nM
Notes: 7-mer, probes averaged, single round
Baseline: mean of 7-mers
Direction: higher = stronger binding
Target sequence (chain): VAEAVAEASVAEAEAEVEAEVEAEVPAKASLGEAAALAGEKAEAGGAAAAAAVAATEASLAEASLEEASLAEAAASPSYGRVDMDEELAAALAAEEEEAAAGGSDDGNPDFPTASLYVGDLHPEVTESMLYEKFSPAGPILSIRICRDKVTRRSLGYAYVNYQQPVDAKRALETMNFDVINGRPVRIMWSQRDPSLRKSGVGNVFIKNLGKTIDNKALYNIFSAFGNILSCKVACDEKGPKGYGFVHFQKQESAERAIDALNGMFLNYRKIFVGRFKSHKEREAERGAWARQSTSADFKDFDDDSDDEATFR
With `GUGGCCU` the 7-mer Z-score was 0.0932.
With `GUCCCCG` the 7-mer Z-score was -0.387.
The 7-mer Z-score of `UGUGCAC` is reported as -0.188.
The 7-mer Z-score of `AGACAGU` is reported as -0.24.
`GUACGUC` gave a 7-mer Z-score of -0.318.
`GAUUCUG` has a 7-mer Z-score of -0.316.
The 7-mer Z-score of `CCAUUAG` is reported as -0.335.
For `ACAACGG`, the 7-mer Z-score was 0.195.
With `AAAUAUU` the 7-mer Z-score was 1.48.
`CCGGCAG` gave a 7-mer Z-score of -0.0881.
The 7-mer Z-score of `UCCGCAC` is reported as -0.373.
`GGCACAU` gave a 7-mer Z-score of 0.0424.
The 7-mer Z-score of `CAAGCCA` is reported as -0.124.
`GGUAUUA` has a 7-mer Z-score of -0.157.
With `GAUUCUA` the 7-mer Z-score was -0.219.
With `UAACAAG` the 7-mer Z-score was 0.0424.
`ACAGACA` gave a 7-mer Z-score of 0.193.
`UCCGCUU` gave a 7-mer Z-score of -0.456.

Set 5
Target: RNA binding protein fox-1 homolog 2, RRM domain, GST-SBP tag (RBFOX2, Homo sapiens, UniProt O43251-10, residues 100-194)
Method: RNA Bind-n-Seq
Form: RNA
Sample: in vitro
Tested at: 365 nM
Notes: natural RNA segment, single round, ends assumed
Baseline: no-protein control
Direction: higher = stronger binding
All sequences stand within: GGGAGUUCUACAGUCCGACGAUC … UGGAAUUCUCGGGUGCCAA
Target sequence (chain): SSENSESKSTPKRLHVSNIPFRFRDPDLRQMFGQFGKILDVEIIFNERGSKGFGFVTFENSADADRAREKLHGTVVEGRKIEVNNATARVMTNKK
For `AAAAAACAAGACCCUUCACACAGUUAGCUCAGGCCAUUUUAAGGACGAAGGCUCUGCUGGUCCUCCUGUGCUGGGAAUCUCUUUGAUGGCCUCUUGUGAAGCUCAUGAAA`, “RBNS enrichment (R)” read 0.263.
`UGAAACCUUUUCAGAAUCAUGGCAGAGGGGCGUGGCGUGGUGCUACUGAGAAGGUCCUCCUUCCUCUUGACUUUGUGGUCUGAAACCUGGUCUUACUGUCCAUGUGUGUU` — result for “RBNS enrichment (R)”: 0.549.
`UCACCAUGUGAACAUAGUACCUCAGUUCUGUCCUUGGCUGCAAUCGUUGUGUGCUCAGUGUUUUCUCAUAGGCACCAGGGACAGGCUUCUCAAGGCAGUAUGAUAUACCC`: “RBNS enrichment (R)” 0.576.
`GGCAUCAGAGGGAAGGGAGGCUGGGGCUGCAGGGCAGUGAAACCCACGCAGCCUAGGCCAGAGCACUUUACUCCAGGCAGGGCCCCUGCCCCUGUUGGCCACAGCUUAUG` — result for “RBNS enrichment (R)”: 0.243.
For `AUGCUUUUGGGUUUUUAAUAUGCCACUUCUGAGUGAAAACAUCUCGUGGAGUCAUUGUGUUCAGCUCUGAGAAGAACAAAGAUUCAUAGUUCUGUACAUGUGGCUGGAUU`, “RBNS enrichment (R)” read 0.586.
`GUCUCUUUGAGUAUCUGGAAAUCCCUGUCAUCUGCUGUCAUUGUGAGCAAGAAUUGCCCAGCAUUUGAAUUGCCUGGACUUUGUCCUUCCCACUAGGUGUGCCAUGAUCC` — result for “RBNS enrichment (R)”: 0.839.
`ACAGCUACCCCCAUAUUCAAAAAUAGUUCUUUUCCCUGUAGGGAAACAGGUAGCUCUCCAUAAGGAAAUUAUCAUGAGUGUGUUCUCCCAUCAGUGCACUUCUCCCAGGG`: “RBNS enrichment (R)” 0.348.
Under “RBNS enrichment (R)”, `UGGGGCCUUCCUGGCUUUGGGAGUAAGAAAUGGGCCUCAGCCCCGCGGAUCAACCAGGCAGAGUUCUGUGGCGCCGCGUGGACAGCCGGAGCAGUUGGCCUGUGCUUGGA` is recorded as 0.413.
`GAUUUUGUUUUUUAGGAAAUAUACGAAGAGUCAUCAACUUGGAAAGGAAACAAAGAGUGCUUUUGGGCAUCCAACAGUUAAUCACUUAUGUUUUUAGAGCAUGCAAUCUU`: “RBNS enrichment (R)” 9.78.
`UGUCGUCAGAGGCUUGUGAUUAACUGUGGCGGCAGACACAGCUUGUCCACAGCUUGGGCCAGGCUUCCCCUGUCCUCCCACCGGUCGGCUGCUUGGCAAGGCUGUUCAGG`: “RBNS enrichment (R)” 0.578.
For `AUCUUGUGUAUGUUUUUGGUGCGUAAAAGGGAAAAAUUGGUGUCAUUACUUUUGAAAUUUGCAGGACGAAGGGCAUGCUUUUGGUUUGCUGUAAGAUUGUAUUCUGUAUA`, “RBNS enrichment (R)” read 1.7.
`UCUGCCCCUGGGUCCAUGUAUCCACCUAGCUCUGGUACCCUCCAGAGGUGCCAUCUCUACCUCUGACACAGCCUGUCUGCCUUGAGACUGAGGAAGGCACAGGCAAGCAA` — result for “RBNS enrichment (R)”: 0.59.

For quick reference, copied from above (set 4):
The 7-mer Z-score of `UCCGCAC` is reported as -0.373.
`GGCACAU` gave a 7-mer Z-score of 0.0424.
The 7-mer Z-score of `CAAGCCA` is reported as -0.124.
`GGUAUUA` has a 7-mer Z-score of -0.157.
With `GAUUCUA` the 7-mer Z-score was -0.219.
With `UAACAAG` the 7-mer Z-score was 0.0424.
`ACAGACA` gave a 7-mer Z-score of 0.193.
